Measurements from different studies.
Each line is one published result; not all experiments were run side by side. “And” joins repeats or separate records; there may be more than shown. Numbers after ± are the reported error. Values after ≈ are worked out from the molar mass of the structure shown.

| SMILES | organism | assay | test system | conditions | measurement | value |
| --- | --- | --- | --- | --- | --- | --- |
| N=C(N)c1ccc(OCCCCCOc2ccc(C(=N)N)cc2)cc1 | Escherichia coli | checkerboard | mcr-3 polymyxin-resistant | concentration not given, with: rifampicin | MIC of compound in combination | 50 µg/mL |
| CC(C)n1ncc2c(C(=O)NCC3(C)CNC3)cc(C3CC3)nc21 | Enterovirus D68 | cytopathic effect | RD, US/IL/14-18956 | 50 nM | cell protection | -0.422% and -0.281% and -0.844% |
| CC1=NN(c2cc(Cl)ccc2Cl)C(=O)C1=NNc1ccc(S(N)(=O)=O)cc1 | Saccharomyces cerevisiae | – | – | 10 µg/mL | glucose uptake | 44.891 ± 0.000999% |
| CC(=O)NC[C@H]1CN(c2ccc(N3CCOCC3)c(F)c2)C(=O)O1 | Streptococcus pyogenes | broth microdilution | – | – | MIC50 | 0.5 µg/mL (≈ 1.48 µM) |
| CC[C@H]1OC(=O)[C@H](C)[C@@H](O[C@H]2C[C@@](C)(OC)[C@@H](O)[C@H](C)O2)[C@H](C)[C@@H](O[C@@H]2O[C@H](C)C[C@H](N(C)C)[C@H]2O)[C@](C)(O)C[C@@H](C)CN(C)[C@H](C)[C@@H](O)[C@]1(C)O | Neisseria gonorrhoeae | broth microdilution | WHO F | 1.5 h | MIC | 0.0625 µg/mL (≈ 0.0834 µM) |
| CC(=O)N1CCC(C(=O)N2CCN3C(=O)c4cc(-c5ccccc5)ccc4NC(=O)C3C2)CC1 (stereo not shown) | Caenorhabditis elegans | – | N2 | 25 µM | mean lifespan | 20.8 days |
| Cc1cc(Nc2ccc(S(F)(F)(F)(F)F)cc2)n2nc(C(C)(F)F)nc2n1 | Plasmodium falciparum | – | human | – | time to parasitaemia nadir, upper bound | 664 h |
| CC1=NN(c2ccccc2)C(=O)C1=NNc1ccc(S(N)(=O)=O)cc1 | Saccharomyces cerevisiae | – | – | 200 µg/mL | glucose uptake | 26.1% |
| CN[C@H](CC(C)C)C(=O)N[C@H]1C(=O)N[C@@H](CC(N)=O)C(=O)N[C@H]2C(=O)N[C@H]3C(=O)N[C@H](C(=O)N[C@H](C(=O)O)c4cc(O)cc(O)c4-c4cc3ccc4O)[C@H](O)c3ccc(c(Cl)c3)Oc3cc2cc(c3O[C@@H]2O[C@H](CO)[C@@H](O)[C@H](O)[C@H]2O[C@H]2C[C@](C)(N)[C@H](O)[C@H](C)O2)Oc2ccc(cc2Cl)[C@H]1O | Streptococcus viridans | – | 10 clinical isolates | – | MIC50 | 0.5 µg/mL (≈ 0.345 µM) |
| C#CCON=C1C=CC(=C(C#N)c2ccccc2)C=C1 | Candidozyma auris | – | ATCC MYA-5001 | concentration not given | antifungal activity | active |
| CC1=NN(c2ccc(F)cc2)C(=O)C1=NNc1ccc(S(N)(=O)=O)cc1 | Saccharomyces cerevisiae | – | – | 50 µg/mL | glucose uptake | 33.6% |
| CCc1c2c(nc3ccc(OC(=O)N4CCC(N5CCCCC5)CC4)cc13)-c1cc3c(c(=O)n1C2)COC(=O)[C@]3(O)CC | Taenia solium | trypan blue staining | – | IC50, 24 h | killed cysts | 20% |
| CC1=NCCNC(=O)C1=NNc1ccc(S(N)(=O)=O)cc1 | Saccharomyces cerevisiae | – | – | 100 µg/mL | glucose uptake | 27.6% |
| CCCCCOc1ccc(-c2ccc(-c3ccc(C(=O)N[C@H]4C[C@@H](O)[C@@H](OCC[N+](C)(C)C)NC(=O)[C@@H]5[C@@H](O)[C@@H](C)CN5C(=O)[C@H]([C@@H](C)O)NC(=O)[C@H]([C@H](O)[C@@H](O)c5ccc(O)cc5)NC(=O)[C@@H]5C[C@@H](O)CN5C(=O)[C@H]([C@@H](C)O)NC4=O)cc3)cc2)cc1 | Candida glabrata | – | 35315, neutropenic mouse, disseminated candidiasis | dose not given, average 24 h AUC over 7 days | total AUC/MIC for 1 log kill | 105 |
| CC1=NN(c2cccc(C)c2)C(=O)C1=NNc1ccc(S(N)(=O)=O)cc1 | Saccharomyces cerevisiae | – | – | 500 µg/mL | glucose uptake | 52.7% |
| CC(C)[C@@H]1NC(=O)[C@@H](CCCCN)NC(=O)[C@H]([C@@H](C)O)NC(=O)[C@@H](CCCN)NC(=O)[C@H](Cc2ccccc2)NC(=O)[C@@H](Cc2ccccc2)NC1=O | Naegleria fowleri | – | – | trophozoites | IC90 | > 16 µg/mL |
